Experimental data pooled from the literature.
Each numbered part is a random draw from the data of one study; scales do not carry over between parts. Changes are numbered by the printed parent chain.
Chain of UniProt P09936 (whole entry, looked up): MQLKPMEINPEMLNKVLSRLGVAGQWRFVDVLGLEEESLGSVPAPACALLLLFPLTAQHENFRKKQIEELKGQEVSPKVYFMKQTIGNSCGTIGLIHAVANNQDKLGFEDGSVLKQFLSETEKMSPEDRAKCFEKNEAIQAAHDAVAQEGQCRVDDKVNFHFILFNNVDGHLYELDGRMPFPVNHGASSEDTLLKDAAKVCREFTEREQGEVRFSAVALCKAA
Chain of UniProt P54578 (whole entry, looked up): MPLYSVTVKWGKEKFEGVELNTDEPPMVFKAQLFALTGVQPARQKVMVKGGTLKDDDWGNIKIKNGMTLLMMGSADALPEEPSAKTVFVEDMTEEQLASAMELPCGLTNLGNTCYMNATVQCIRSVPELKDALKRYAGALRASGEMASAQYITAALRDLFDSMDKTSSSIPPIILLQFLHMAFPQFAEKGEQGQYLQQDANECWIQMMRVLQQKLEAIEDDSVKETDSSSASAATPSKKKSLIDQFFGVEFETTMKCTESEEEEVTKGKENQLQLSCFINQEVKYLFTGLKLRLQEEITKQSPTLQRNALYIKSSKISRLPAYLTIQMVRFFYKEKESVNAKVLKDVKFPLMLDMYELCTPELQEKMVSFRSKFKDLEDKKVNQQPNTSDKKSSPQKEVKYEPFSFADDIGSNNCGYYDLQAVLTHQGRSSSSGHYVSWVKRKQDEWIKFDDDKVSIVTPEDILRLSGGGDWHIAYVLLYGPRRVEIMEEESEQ
Chain of UniProt Q93009 (whole entry, looked up): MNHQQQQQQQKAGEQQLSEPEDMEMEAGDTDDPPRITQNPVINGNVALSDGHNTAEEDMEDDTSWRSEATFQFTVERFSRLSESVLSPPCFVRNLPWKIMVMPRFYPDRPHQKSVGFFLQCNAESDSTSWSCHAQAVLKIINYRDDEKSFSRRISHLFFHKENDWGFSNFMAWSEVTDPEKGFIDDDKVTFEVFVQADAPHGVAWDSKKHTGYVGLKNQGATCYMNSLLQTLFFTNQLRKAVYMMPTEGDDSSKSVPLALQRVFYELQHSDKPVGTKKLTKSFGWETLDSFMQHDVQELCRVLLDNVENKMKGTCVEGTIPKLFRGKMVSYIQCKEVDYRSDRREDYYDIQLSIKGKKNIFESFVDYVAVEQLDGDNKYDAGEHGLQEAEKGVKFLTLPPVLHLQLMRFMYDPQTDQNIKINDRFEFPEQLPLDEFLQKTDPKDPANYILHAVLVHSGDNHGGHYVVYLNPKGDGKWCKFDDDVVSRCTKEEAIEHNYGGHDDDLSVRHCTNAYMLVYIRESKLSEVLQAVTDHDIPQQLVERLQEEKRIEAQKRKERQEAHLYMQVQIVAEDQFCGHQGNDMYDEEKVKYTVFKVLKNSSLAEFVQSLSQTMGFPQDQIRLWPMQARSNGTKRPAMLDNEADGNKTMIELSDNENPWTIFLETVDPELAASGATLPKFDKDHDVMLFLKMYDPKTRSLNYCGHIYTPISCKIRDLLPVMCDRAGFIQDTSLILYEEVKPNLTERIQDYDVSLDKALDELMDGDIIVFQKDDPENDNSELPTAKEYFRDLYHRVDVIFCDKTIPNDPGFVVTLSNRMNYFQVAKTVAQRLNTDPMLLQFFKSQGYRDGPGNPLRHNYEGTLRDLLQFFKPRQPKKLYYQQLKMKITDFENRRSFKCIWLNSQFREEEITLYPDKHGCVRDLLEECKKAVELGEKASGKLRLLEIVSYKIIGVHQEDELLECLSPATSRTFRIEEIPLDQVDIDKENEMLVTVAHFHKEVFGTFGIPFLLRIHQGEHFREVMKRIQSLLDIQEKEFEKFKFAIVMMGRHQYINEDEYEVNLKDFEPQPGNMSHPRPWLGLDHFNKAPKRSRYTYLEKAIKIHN
Chain of UniProt P21580 (whole entry, looked up): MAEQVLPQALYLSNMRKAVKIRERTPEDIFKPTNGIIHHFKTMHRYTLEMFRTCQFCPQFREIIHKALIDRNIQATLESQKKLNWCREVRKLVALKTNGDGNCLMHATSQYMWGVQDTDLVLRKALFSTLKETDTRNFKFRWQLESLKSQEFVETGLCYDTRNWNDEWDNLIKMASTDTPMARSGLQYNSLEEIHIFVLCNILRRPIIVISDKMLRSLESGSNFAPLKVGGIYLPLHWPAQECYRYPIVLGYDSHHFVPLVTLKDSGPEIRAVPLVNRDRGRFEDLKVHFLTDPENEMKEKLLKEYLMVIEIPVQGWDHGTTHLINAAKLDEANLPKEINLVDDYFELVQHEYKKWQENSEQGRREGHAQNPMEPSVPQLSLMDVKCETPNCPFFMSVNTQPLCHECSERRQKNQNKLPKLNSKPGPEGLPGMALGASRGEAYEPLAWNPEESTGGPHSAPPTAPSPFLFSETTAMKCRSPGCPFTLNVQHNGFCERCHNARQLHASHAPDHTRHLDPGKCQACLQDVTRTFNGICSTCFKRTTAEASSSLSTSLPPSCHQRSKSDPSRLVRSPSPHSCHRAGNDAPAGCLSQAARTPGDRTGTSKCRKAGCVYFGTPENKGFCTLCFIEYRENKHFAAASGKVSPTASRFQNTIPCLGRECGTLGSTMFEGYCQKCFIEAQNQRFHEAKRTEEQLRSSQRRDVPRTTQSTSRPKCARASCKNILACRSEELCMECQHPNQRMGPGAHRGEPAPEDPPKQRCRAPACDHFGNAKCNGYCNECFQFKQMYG
Chain of UniProt P54252 (whole entry, looked up): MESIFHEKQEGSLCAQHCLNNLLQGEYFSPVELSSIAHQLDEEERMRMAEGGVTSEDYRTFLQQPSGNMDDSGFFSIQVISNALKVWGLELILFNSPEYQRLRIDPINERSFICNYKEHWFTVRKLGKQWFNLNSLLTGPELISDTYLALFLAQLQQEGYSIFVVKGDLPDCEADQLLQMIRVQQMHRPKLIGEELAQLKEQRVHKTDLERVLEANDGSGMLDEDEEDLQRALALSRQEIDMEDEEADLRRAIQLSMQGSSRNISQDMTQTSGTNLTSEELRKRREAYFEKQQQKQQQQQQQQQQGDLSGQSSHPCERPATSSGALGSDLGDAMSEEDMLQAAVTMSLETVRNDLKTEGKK

Set 1
Target: UBE2D4 UBC core domain (UniProt Q9Y2X8)
Method: yeast two-hybrid
Sample: yeast
Setting: mostly zero background
Relative to: not given
Reading: higher = stronger interaction
Measurement: lacZ reporter activity
B1: RNF170 RING domain (UniProt Q96K19); chain TRQQFYTDMYCPICLHQASFPVETNCGHLFCGACIIAYWRYGSWLGAISCPICRQTVTLLLTVF
B2: TRIM63 RING domain (UniProt Q969Q1); chain PMENLEKQLICPICLEMFTKPVVILPCQHNLCRKCANDIFQAANPYWTSRGSSVSMSGGRFRCPTCRHEVIMDRHGV
B3: TRIM69 RING domain (UniProt Q86WT6); chain VIQDITMELHCPLCNDWFRDPLMLSCGHNFCEACIQDFWRLQAKETFCPECKMLCQYNNCTF
B4: PHF21A RING domain (UniProt Q96BD5); chain SPTSTDGDIHEDFCSVCRKSGQLLMCDTCSRVYHLDCLDPPLKTIPKGMWICPRCQDQMLKKEEAIPW
B5: ZNF598 RING domain (UniProt Q86UK7); chain AAAPERGGGSCVLCCGDLEATALGRCDHPVCYRCSTKMRVLCEQRYCAVCREELRQVVFGK
Residues (chain): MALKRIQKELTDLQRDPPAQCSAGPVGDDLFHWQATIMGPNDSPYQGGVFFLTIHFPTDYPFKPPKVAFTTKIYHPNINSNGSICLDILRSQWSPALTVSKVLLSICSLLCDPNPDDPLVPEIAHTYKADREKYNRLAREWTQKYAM
FPEHFVKSISCQICEHILADPVETNCKHVFCRVCILRCLKVMGSYCPSCRYPCFPTDLES (RAG1 RING domain (UniProt P15918)): 0
B1 (RNF170 RING domain): 0
DDENSDNSNECVVCLSDLRDTLILPCRHLCLCTSCADTLRYQANNCPICRLPFRALLQIR (MGRN1 RING domain (UniProt O60291)): 0
B2 (TRIM63 RING domain): 0
B3 (TRIM69 RING domain): 0
YWAMDSTFELCKICAESNKDVKIEPCGHLLCSCCLAAWQHSDSQTCPFCRCEIKGWEAVS (CBLC RING domain (UniProt Q9ULV8)): 0
B4 (PHF21A RING domain): 0
B5 (ZNF598 RING domain): 0
VTLSLTLPITCHICLGKVRQPVICINNHVFCSICIDLWLKNNSQCPACRVPITPENPCK (OBI1 RING domain (UniProt Q5W0B1)): 0
QLQDIKEQTMCPVCLDRLKNMIFLCGHGTCQLCGDRMSECPICRKAIERRILLY (MIB1 RING domain (UniProt Q86YT6)): 11700
EDEVSDNSAECVVCLSDVRDTLILPCRHLCLCNTCADTLRYQANNCPICRLPFRALLQIR (RNF157 RING domain (UniProt Q96PX1)): 0

Set 2
Target: HLA class I histocompatibility antigen, A alpha chain, allele A*26:03 (Homo sapiens, UniProt P04439)
Read-out: peptide-MHC binding
Molecule type: peptide
Tested at: concentration not given
Measurement: binding
SHEGEGIPL: inactive
GEGSGARLL: inactive
KVFDKSLLY: inactive
REIGDISYL: inactive
LEHGLYPQL: inactive
REFEAQNVP: inactive
EEDAAVDDL: inactive

Set 3
Target: ABI1, truncated, D143A, DHFR fusion (Arabidopsis thaliana)
Method: DHFR PCA, deep sequencing
Sample: yeast
Setting: methotrexate growth selection, single substitutions
Added: (+)-ABA 17 µM
Relative to: wild-type fitted maximum
Reading: higher = stronger binding
Measurement: relative binding score
Starting sequence: PYL1, truncated, DHFR fusion (Arabidopsis thaliana); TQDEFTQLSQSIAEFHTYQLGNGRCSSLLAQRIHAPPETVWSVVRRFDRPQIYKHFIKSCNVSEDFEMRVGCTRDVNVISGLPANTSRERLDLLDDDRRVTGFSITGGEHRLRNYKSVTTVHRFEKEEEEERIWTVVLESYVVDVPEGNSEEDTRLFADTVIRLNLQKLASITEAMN; partner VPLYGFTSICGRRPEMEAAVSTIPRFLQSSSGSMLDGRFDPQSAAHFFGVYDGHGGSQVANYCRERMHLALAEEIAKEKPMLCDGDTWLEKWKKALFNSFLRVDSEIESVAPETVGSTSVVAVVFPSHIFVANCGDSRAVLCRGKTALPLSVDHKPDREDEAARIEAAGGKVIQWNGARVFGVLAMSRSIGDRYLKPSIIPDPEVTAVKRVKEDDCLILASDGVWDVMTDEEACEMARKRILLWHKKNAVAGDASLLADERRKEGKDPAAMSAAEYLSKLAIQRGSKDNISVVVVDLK
N177S: 93.9%
R90Q: 72.7%
A158K: 9.5%
T86F: 75.7%
D144K: 24.2%
E109K: 63.9%
R155S: 33.4%
I79S: 63.8%

Set 4
Molecule: ubiquitin aldehyde
Read-out: enzyme activity
Measurement: inhibition
Ubiquitin carboxyl-terminal hydrolase 7 (USP7, Homo sapiens, UniProt Q93009); 0.01 µM: 56%
Ubiquitin carboxyl-terminal hydrolase isozyme L1 (UCHL1, Homo sapiens, UniProt P09936); 0.01 µM: 20%
Ataxin-3 (ATXN3, Homo sapiens, UniProt P54252); 0.1 µM: 30%
Ubiquitin carboxyl-terminal hydrolase 14 (USP14, Homo sapiens, UniProt P54578); 0.01 µM: 72%
TNFAIP3 (Homo sapiens, UniProt P21580); 0.1 µM: 96%

Excerpt of the above (set 1):
DDENSDNSNECVVCLSDLRDTLILPCRHLCLCTSCADTLRYQANNCPICRLPFRALLQIR (MGRN1 RING domain (UniProt O60291)): 0
B2 (TRIM63 RING domain): 0
